Published values pooled from the literature.
A part holds a random share of what one study measured.

Series 1
Target: Interferon regulatory factor 5, full length, phosphomimetic (IRF5, Homo sapiens, UniProt Q13568-2, residues 1-514, K96S/S451D/S453D/S456D/S462D)
Technique: protein-binding microarray
Molecule type: double-stranded DNA, one strand shown
Sample: in vitro
Tested at: 250 nM
Setting: 60-bp whole probe
Added: salmon DNA 0.4 mg/ml
Baseline: random background probes
Reading: higher = stronger binding
Sequence	log fluorescence
GCCTAGCACTTAGGTTTCCTTTCCCTGTAGTGCTAGGTCTTGATTCGCTTGACGCTGCTG	1.54 z-score
GCCTAGCACTTAGGTATCCTTTCCCTTTAGTGCTAGGTCTTGATTCGCTTGACGCTGCTG	0.612 z-score
GCCTAGCACTTCGGTATCGGTCTCGGTTAGTGCTAGGTCTTGATTCGCTTGACGCTGCTG	7.92 z-score

Series 2
Target: Histone acetyltransferase KAT6A, winged helix 1, GST fusion (KAT6A, Homo sapiens, UniProt Q92794, residues 1-85)
Technique: protein binding microarray
Molecule type: double-stranded DNA, one strand shown
Sample: in vitro
Tested at: not given
Setting: 8-mer, flanks averaged, mean of 2 arrays, mostly near background
Baseline: not given
Reading: higher = stronger binding
Target sequence (chain): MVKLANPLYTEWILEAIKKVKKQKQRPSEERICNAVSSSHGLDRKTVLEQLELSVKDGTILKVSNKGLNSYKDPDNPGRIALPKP
Sequence	E-score
CCCTTGCA	-0.118
CGGCTCGC	0.286
TCAACTGA	-0.227
ACGAACCC	0.194

Further values, each from its own experiment
RBFOX2 RRM domain, GST-SBP tag: RNA binding protein fox-1 homolog 2, RRM domain, GST-SBP tag (RBFOX2, Homo sapiens, UniProt O43251-10, residues 100-194)
Molecule	target	assay	test system	setting	scale	measurement	value
GGGAGUUCUACAGUCCGACGAUCUAGAAUUGAAACAACUGUGUCUUAGACAUUUGUUUGAAAAAGCUUCAUCAGGCCUUGGAGCAGUCACUGCUUUAUUCCGCAAAAAUUAUUUGGUAGGAAAUUUUUGGGAGUGGAAUUCUCGGGUGCCAA	RBFOX2 RRM domain, GST-SBP tag	RNA Bind-n-Seq	RNA, in vitro	365 nM, natural RNA segment, single round, ends assumed	baseline: no-protein control, higher = stronger binding	RBNS enrichment (R)	0.529
PhoQ, residues 284 288 289 292 302 303 TAVSDG	PhoP, residues 12 14 15 18 19 FWNTL (Escherichia coli, UniProt P23836)	Sort-seq, item: YFP reporter	E. coli	PhoQ-PhoP variant library, added: 10 µM Mg2+	baseline: high Mg2+ state, higher = stronger signaling	fold induction	4.25
GGGAGUUCUACAGUCCGACGAUCGGGAAGAAAGCAAGGGACAAAGAACUGCAAGGGGCCAAAGCCAAAGAUCUAUCCGAGUGCUUCCUUCAACUGACCAUAUGCUUCUUCCUCGUGUCUGCCUGCGGGCUCCUUGGAAUUCUCGGGUGCCAA	RBFOX2 RRM domain, GST-SBP tag	RNA Bind-n-Seq	RNA, in vitro	365 nM, natural RNA segment, single round, ends assumed	baseline: no-protein control, higher = stronger binding	RBNS enrichment (R)	0.461
GGGAGUUCUACAGUCCGACGAUCUUCUAUGUUUAAUGCUUUACUAAUUUCCAGUAAGACUAUAUUUAAAACUACAUAGUCUUUCCUUAUUUUAUUUAGUAUGACAUUGUCAAUAGUAAUAAGGUAGCAUUUCUUGGAAUUCUCGGGUGCCAA	RBFOX2 RRM domain, GST-SBP tag	RNA Bind-n-Seq	RNA, in vitro	365 nM, natural RNA segment, single round, ends assumed	baseline: no-protein control, higher = stronger binding	RBNS enrichment (R)	0.431

For quick reference, copied from above (series 1):
Sequence	log fluorescence
GCCTAGCACTTAGGTATCCTTTCCCTTTAGTGCTAGGTCTTGATTCGCTTGACGCTGCTG	0.612 z-score
